Measured values collected from several papers.
Every numbered part comes from another study and shows a few of its results, in no order. Changes are numbered by the printed parent chain.

Block 1 — organism: Vesicular stomatitis virus; effect on: pseudovirus infection; concentration: concentration not given; setting: VSV-G control pseudotype; relative to: vehicle
CCCCCOc1ccc(-c2cc(-c3ccc(C(=O)N[C@H]4C[C@@H](O)[C@@H](O)NC(=O)[C@@H]5[C@@H](O)[C@@H](C)CN5C(=O)[C@H]([C@H](O)CC(N)=O)NC(=O)[C@H]([C@H](O)[C@@H](O)c5ccc(O)c(OS(=O)(=O)[O-])c5)NC(=O)[C@@H]5C[C@@H](O)CN5C(=O)[C@H]([C@@H](C)O)NC4=O)cc3)no2)cc1.[Na+] gave a GFP-positive cells of 88.9%.
With COc1c(-c2ccc3cc(NS(C)(=O)=O)ccc3c2)cc(-n2ccc(=O)[nH]c2=O)cc1C(C)(C)C the GFP-positive cells was 84.5%.
The GFP-positive cells of CC(=O)O[C@]1(C(C)=O)CC[C@H]2[C@@H]3C[C@H](C)C4=CC(=O)CC[C@]4(C)[C@H]3CC[C@@]21C is reported as 111%.

Block 2 — technique: protein-binding microarray; form: double-stranded DNA, one strand shown; matrix: in vitro; concentration: not given; reading: higher = stronger binding
Target: Max dimerization protein 1, bHLH-zipper, MAX partner unstated (MXD1, Homo sapiens, UniProt Q05195, residues 56-136)
Setting: k-mer, scored over probes, only values ≥0.25
Target sequence (chain): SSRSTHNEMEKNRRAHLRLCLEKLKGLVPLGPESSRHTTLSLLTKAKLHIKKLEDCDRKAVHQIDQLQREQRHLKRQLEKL
`CCCACCCC` has an E-score of 0.393.
`CAGTCACG` has an E-score of 0.402.
For `AGGCATGC`, the E-score was 0.367.
The E-score of `GGTGGCCA` is reported as 0.25.
With `ATGACATG` the E-score was 0.273.
The E-score of `ACACATTG` is reported as 0.356.
The E-score of `ACACATGG` is reported as 0.454.
For `CATGCATA`, the E-score was 0.298.

Block 3 — target: CCNF, cyclin fold, Cln2 fusion (human); technique: yeast growth competition, sequencing; matrix: yeast; setting: strong parent motif; relative to: not given; reading: higher = stronger binding; starting sequence: viral docking peptide; CKVKRKLFGSENI
`CKVKRKLFGSANI [E11A]`: “normalised enrichment score” 7.79.
For `CKVKRKLAGSENI [F8A]`, “normalised enrichment score” read 0.87.
`AKVKRKLFGSENI [C1A]` — result for “normalised enrichment score”: 7.98.
`CKVKKKLFGSENI [R5K]` — result for “normalised enrichment score”: 4.14.
Under “normalised enrichment score”, `CKVKRKAFGSENI [L7A]` is recorded as 2.05.
For `CKVKAKAFGSENI [R5A L7A]`, “normalised enrichment score” read 0.484.

Block 4 — effect on: peptide-MHC binding; form: peptide; concentration: concentration not given
Target: HLA class I histocompatibility antigen, A alpha chain, allele A*26:03 (Homo sapiens, UniProt P04439)
For `IYTVIYYIF`, binding read “inactive”.
Under binding, `SEVKFKYVL` is recorded as “inactive”.
`WMACHSAAF`: binding “inactive”.
`YWMGGTTYF` — result for binding: “inactive”.
Under binding, `NLPSKPVWL` is recorded as “inactive”.
`DVRPRHPGY` — result for binding: “inactive”.
Under binding, `KRINSLIKY` is recorded as “inactive”.
Under binding, `RFRCVGPAP` is recorded as “inactive”.
`SHEQGDIAL` — result for binding: “inactive”.
`LFLSFCSLF` — result for binding: “inactive”.
Under binding, `ETIGLVRAL` is recorded as “active”.
For `IEFIEVVRL`, binding read “inactive”.
`FQVNRFTGY` — result for binding: “inactive”.
For `RVFPGDHFY`, binding read “inactive”.
`GYAWIDFDI` — result for binding: “inactive”.
`EQRLIDICV` — result for binding: “inactive”.
Under binding, `EFKRRLKDL` is recorded as “inactive”.
For `SYLIRALTL`, binding read “inactive”.
`RSLYNTIATLY`: binding “inactive”.
For `NRLKPRDFK`, binding read “inactive”.
`EVIKYGIIY`: binding “inactive”.
Under binding, `MKWMMAMKY` is recorded as “inactive”.
`IHSDQLSKF` — result for binding: “inactive”.
For `FMKVKFEAL`, binding read “inactive”.
`PHPVVVRTL`: binding “inactive”.

Block 5 — technique: RNAcompete; form: RNA; matrix: in vitro; concentration: 20 nM; setting: 7-mer, probes averaged, single round; relative to: mean of 7-mers; reading: higher = stronger binding
Target: PABPC1L2, full length, GST fusion (mouse, UniProt A0ABA7IW68)
Residues (chain): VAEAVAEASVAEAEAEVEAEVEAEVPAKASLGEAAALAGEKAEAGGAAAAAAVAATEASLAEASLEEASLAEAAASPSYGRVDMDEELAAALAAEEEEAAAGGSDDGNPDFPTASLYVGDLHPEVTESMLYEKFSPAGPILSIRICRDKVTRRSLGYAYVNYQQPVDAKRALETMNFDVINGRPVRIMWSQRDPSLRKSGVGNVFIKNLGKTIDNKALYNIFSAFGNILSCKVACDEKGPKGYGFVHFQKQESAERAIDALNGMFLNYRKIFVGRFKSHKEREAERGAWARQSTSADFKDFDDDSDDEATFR
For `CGGAGCC`, the 7-mer Z-score was -0.142.
For `GAAGGCU`, the 7-mer Z-score was 0.0877.
For `UUACUGC`, the 7-mer Z-score was -0.333.
With `CCCCGUC` the 7-mer Z-score was -0.494.
With `GGUCUGU` the 7-mer Z-score was -0.24.
With `CCAAGAU` the 7-mer Z-score was -0.0428.
`CGCCCGG` gave a 7-mer Z-score of -0.128.
For `CAAUCGC`, the 7-mer Z-score was -0.188.

Excerpt of the above (block 3):
`AKVKRKLFGSENI [C1A]` — result for “normalised enrichment score”: 7.98.
`CKVKRKLFGSANI [E11A]`: “normalised enrichment score” 7.79.
For `CKVKAKAFGSENI [R5A L7A]`, “normalised enrichment score” read 0.484.
For `CKVKRKLAGSENI [F8A]`, “normalised enrichment score” read 0.87.
`CKVKKKLFGSENI [R5K]` — result for “normalised enrichment score”: 4.14.
Under “normalised enrichment score”, `CKVKRKAFGSENI [L7A]` is recorded as 2.05.
